Measured values collected from several papers.
Values joined by “and” are separate records of one study, mostly repeats; a detail may differ. Numbers after ± are the reported error.
uncharacterized protein: uncharacterized protein (Spodoptera exigua, UniProt F1CEY0)

Compound	target or system	test	system	conditions	how to read	endpoint	value
COc1ccc(-c2cc(=O)c3c(O)c(O)c(OC)cc3o2)cc1	O-methyltransferase (Citrus reticulata)	C6 O-methylation, substrate	–	with: S-adenosylmethionine	–	Km	18.1 ± 1.45 µM
CCCCCCCCCCCCC	uncharacterized protein	binding, competitor, fluorescence displacement	–	20 µM, pH 7.4, with: 1-NPN 20 µM	baseline: 1-NPN alone	relative fluorescence	75.8%
CC(C)C[C@H](NC(=O)C[C@H](O)[C@H](CC(C)C)NC(=O)[C@H](Cc1c[nH]cn1)NC(=O)CNC(=O)[C@@H](NC(=O)[C@H](C)NC(=O)[C@H](Cc1c[nH]c2ccccc12)NC(=O)[C@H](CCC(N)=O)NC(=O)[C@@H](Cc1ccccc1)NC(=O)COCCOCCNC(=O)CCC(C(=O)O)N1CCN(CC(=O)O)CCN(CC(=O)O)CCN(CC(=O)O)CC1)C(C)C)C(N)=O (stereo partly drawn) [lutetium-177 labelled]	–	–	BALB/c nu/nu mice, spleen	intravenous, 500 pmol, 1 h, with: PA 300 µg	–	tissue uptake	0.19 ± 0.03 %ID/g
Nc1ncnc2c1ncn2[C@@H]1O[C@H](COP(=O)(O)OP(=O)(O)OP(=O)(O)O)[C@@H](O)[C@H]1O	P2X purinoceptor 7 (P2rx7, Rattus norvegicus, UniProt Q64663, I214A/Q143A)	ion current, agonist, two-electrode voltage clamp	Xenopus laevis oocytes	300 µM	baseline: highest concentration response	normalized current	0.52 and 0.44 and 0.54
C#Cc1c(F)ccc2cc(O)cc(-c3ncc4c(N5CC6CCC(C5)N6)nc(OC[C@@]56CCCN5C[C@H](F)C6)nc4c3F)c12	GTPase KRas, GDP-bound (KRAS, Homo sapiens, UniProt P01116, G12C)	binding	–	–	–	dissociation rate constant	0.000473 ± 0.00055 s⁻¹
CC[C@H](C)[C@@H]1NC(=O)[C@H]([C@@H](C)O)NC(=O)[C@@H]2CCCN2C(=O)[C@@H](NC(=O)CN)CSSC[C@@H]2NC(=O)CNC(=O)[C@H](C)NC(=O)[C@H](CC(C)C)NC(=O)[C@@H]3CSSC[C@@H](C(=O)NCC(=O)O)NC(=O)[C@H](Cc4ccccc4)NC(=O)CNC(=O)[C@H](CC(N)=O)NC(=O)[C@@H]4CCCN4C(=O)CNC(=O)[C@H](CSSC[C@H](NC(=O)[C@H](CCCNC(=N)N)NC(=O)[C@H](CCC(N)=O)NC(=O)[C@H](CCCNC(=N)N)NC(=O)[C@H](CCCCN)NC(=O)[C@H](C(C)C)NC(=O)[C@H]([C@@H](C)O)NC(=O)[C@H](CC(N)=O)NC1=O)C(=O)N[C@@H](CCCCN)C(=O)N[C@@H](CCC(N)=O)C(=O)N[C@@H](CC(=O)O)C(=O)N[C@@H](CO)C(=O)N[C@@H](CC(=O)O)C(=O)N3)NC(=O)[C@H](C(C)C)NC2=O	Low-density lipoprotein receptor-related protein 6, E1 domain (LRP6, Homo sapiens, UniProt O75581)	binding, SPR	–	pH 7.5	–	kon	1.35e+06 ± 180000 M⁻¹ s⁻¹
CC[C@H](C)[C@@H]1NC(=O)[C@H](Cc2ccc(O)cc2)NC(=O)[C@@H](N)CSSC[C@@H](C(=O)N2CCC[C@H]2C(=O)N[C@@H](CC(C)C)C(=O)NCC(N)=O)NC(=O)[C@H](CC(N)=O)NC(=O)[C@H](CCC(N)=O)NC1=O	Oxytocin receptor (Rattus norvegicus, UniProt P70536)	–	rat myoepithelial cells	concentration not given	–	binding sites per cell	~80000
Cc1occc(=O)c1[O-].[Cl-].[W+4].c1cc[cH-]c1.c1cc[cH-]c1	Albumin (ALB, Homo sapiens, UniProt P02768)	binding, fluorescence quenching	–	310 K	–	Gibbs free energy change	-5.93 kcal/mol
CC1=CC[C@H](C(C)C)C=C1	uncharacterized protein	binding, competitor, fluorescence displacement	–	20 µM, pH 7.4, with: 1-NPN 20 µM	baseline: 1-NPN alone	relative fluorescence	67.1%
C1=C/COCc2cc(ccc2OCCN2CCCC2)Nc2nccc(n2)-c2cccc(c2)COC/1	ULK1 (Homo sapiens, UniProt O75385)	–	–	concentration not given	baseline: DMSO control	remaining binding	90%
O=S(=O)(O)C1CCNCC1	SLC6A6 (Homo sapiens, UniProt P31641, Y138A)	binding, microscale thermophoresis	–	1 mM, room temperature, with: 50 nM labelled protein	higher = more binding	normalised MST signal	-0.0439
COc1cc(Nc2ncc3c(n2)-c2ccc(Cl)cc2C(c2c(F)cccc2OC)=NC3)ccc1C(=O)O	MATK	kinase activity	–	1 µM	–	remaining activity	106%
CCN1CCC[C@H]1CNC(=O)c1c(O)c(Cl)cc(Cl)c1OC	G-protein coupled receptor 78 (GPR78, Homo sapiens, UniProt Q96P69)	β-arrestin recruitment, TANGO luminescence, refers to: GPR78	–	concentration not given	baseline: basal luminescence	log2 fold change	0.183
O=C(c1ccc(F)cc1)c1c[nH]c(C(=O)NCCCn2ccnc2)c1	ADORA2A (Homo sapiens, UniProt P29274)	radioligand displacement	–	with: [3H]ZM241385	–	ligand efficiency	0.29
C=CC(=O)N1CCC(COCC(=O)N2CCN(c3nc(-c4cnc(N)nc4C(F)F)nc(N4CCOC[C@@H]4C)n3)CC2)CC1	NTRK3 (Homo sapiens, UniProt Q16288)	KINOMEscan	–	1 µM	–	remaining binding	36%
Cn1cc(-c2ccc(-c3cncc(Cl)c3N3CCC4(CCNC4=O)CC3)cc2)cn1	COLO 205	gene expression, microarray, refers to: CYP27B1 mRNA	–	concentration not given, 2 h	baseline: untreated cells	log2 fold change	2.18
COc1cccc(CC(NC(=O)CNCc2ccccc2)C(=O)O)c1I (stereo not drawn)	OPRK1 (Homo sapiens, UniProt P41145)	binding	–	concentration not given	–	activity	inactive
O=c1nc(SCc2cc(F)cc(C(F)(F)F)c2)nc(SCc2csc3ccc(Cl)cc23)[nH]1	TOP2B (Homo sapiens, UniProt Q02880)	decatenation	–	31.25 µM, replicate 1	–	decatenated DNA	0.3%

Some of these lines once more:
Compound	target or system	test	system	conditions	how to read	endpoint	value
COc1ccc(-c2cc(=O)c3c(O)c(O)c(OC)cc3o2)cc1	O-methyltransferase (Citrus reticulata)	C6 O-methylation, substrate	–	with: S-adenosylmethionine	–	Km	18.1 ± 1.45 µM
